Measured values collected from several papers.
Compare with care: the assays were run in different laboratories.
Cell line: MCF7
Effect on: cell growth or viability

With `O=C(Nc1nc2c(ncn2C2OC(COP(=O)(O)O)C(O)C2O)c(=O)[nH]1)c1ccccc1` (centres unmarked) the IC50 was 7.68 µM.
`Cc1nn(-c2ccccc2)c(O)c1C(c1ccccc1O)c1c(C)nn(-c2ccccc2)c1O` gave an IC50 of 30.2 µM (MTT; 48 h).
For `CC[C@H](C)[C@@H]([C@@H](CC(=O)N1CCC[C@H]1[C@H](OC)[C@@H](C)C(=O)N[C@H](C)[C@@H](O)c1ccccc1)OC)N(C)C(=O)[C@@H](NC(=O)[C@H](C(C)C)N(C)C(=O)OCc1ccc(NC(=O)[C@H](CCCNC(N)=O)NC(=O)[C@@H](NC(=O)CCCc2cn(CC(=O)N[C@@H](CCCNC(=N)N)C(=O)N[C@@H](CCCNC(=N)N)C(=O)N[C@@H](Cc3ccc4ccccc4c3)C(=O)N[C@H]3CSSC[C@@H](C(=O)N[C@@H](CCCNC(=N)N)C(N)=O)NC(=O)[C@H](CCCNC(N)=O)NC(=O)[C@H](CCCNC(=N)N)NC(=O)[C@H](Cc4ccc(O)cc4)NC(=O)[C@@H]4CCCN4C(=O)[C@@H](CCCCN)NC(=O)[C@H](CCCCN)NC(=O)[C@H](CCCNC(N)=O)NC(=O)[C@H](Cc4ccc(O)cc4)NC3=O)nn2)C(C)C)cc1)C(C)C`, the IC50 was 4.05 µM (CCK-8; 48 h).
The IC50 of `CCOc1cccc2c1[O][Pt-2]1([Cl])[N+](=C2)Cc2cccc[n+]21` (centres unmarked) is reported as 13.3 µM (MTT).
For `C[C@H]1O[C@@H](O[C@H]2CC[C@@]3(C)[C@H](CC[C@@H]4[C@@H]3CC[C@]3(C)[C@@H](C5=CC(=O)OC5)[C@@H](O)C[C@]43O)C2)C[C@H](O)[C@@H]1O[C@@H]1O[C@H](CO)[C@@H](O)[C@H](O)[C@H]1O`, the IC50 was 0.26 µM (MTT; 48 h).
`COC(=O)C1CN1S(=O)(=O)c1c(C)cc(C)cc1C` (centres unmarked) gave an IC50 of 49 µM (MTT; 48 h).
With `C=CC[P](c1ccccc1)(c1ccccc1)[Pt]([Cl])([Cl])[P](CC=C)(c1ccccc1)c1ccccc1` the IC50 was 19 µM (MTT).
With `[Cl][Au].[Se]=c1n(C2CCCCC2)ccn1C1CCCCC1` the IC50 was 3.2 µM (MTT; 72 h).
`Cc1nn(-c2ccccc2)c(O)c1C(c1ccccc1[N+](=O)[O-])c1c(C)nn(-c2ccccc2)c1O` gave an IC50 of 35.8 µM (MTT; 48 h).
For `CC(C)C[C@H](NC(=O)[C@H](CC(C)C)NC(=O)[C@H](CC(=O)O)NC(=O)[C@H](CCCCN)NC(=O)[C@H](Cc1ccccc1)NC(=O)CN)C(=O)N[C@@H](CCCCN)C(=O)N[C@H]1CSCc2ccc(cc2)CSC[C@@H](C(=O)N[C@@H](CC(C)C)C(=O)N[C@H](C(=O)N[C@@H](CCCCN)C(=O)N[C@H](C(=O)N[C@H](C(=O)N[C@@H](CC(C)C)C(=O)N[C@@H](Cc2ccccc2)C(N)=O)C(C)C)[C@@H](C)O)C(C)C)NC(=O)[C@H](CCCCN)NC(=O)[C@H](C)NC(=O)[C@H](C)NC1=O`, the IC50 was 9.27 µM (CCK-8).
`O=C1CC2(C1)C(=O)[O][Pt]1([Cl])([O]C(=O)C(F)(F)F)([NH][C@@H]3CCCC[C@H]3[NH]1)[O]C2=O` gave an IC50 of 22.2 µM (MTT).

A few entries again:
With `C=CC[P](c1ccccc1)(c1ccccc1)[Pt]([Cl])([Cl])[P](CC=C)(c1ccccc1)c1ccccc1` the IC50 was 19 µM (MTT).
